Published values of several laboratories.
Numbered parts are unrelated; each lists some results of a single study. Substitutions count along the parent as printed.

Sample 1
Target: Sal-like protein 4, full length isoform A (SALL4, Homo sapiens, UniProt Q9UJQ4, residues 1-1053)
Chain of UniProt Q9UJQ4 (whole entry, looked up): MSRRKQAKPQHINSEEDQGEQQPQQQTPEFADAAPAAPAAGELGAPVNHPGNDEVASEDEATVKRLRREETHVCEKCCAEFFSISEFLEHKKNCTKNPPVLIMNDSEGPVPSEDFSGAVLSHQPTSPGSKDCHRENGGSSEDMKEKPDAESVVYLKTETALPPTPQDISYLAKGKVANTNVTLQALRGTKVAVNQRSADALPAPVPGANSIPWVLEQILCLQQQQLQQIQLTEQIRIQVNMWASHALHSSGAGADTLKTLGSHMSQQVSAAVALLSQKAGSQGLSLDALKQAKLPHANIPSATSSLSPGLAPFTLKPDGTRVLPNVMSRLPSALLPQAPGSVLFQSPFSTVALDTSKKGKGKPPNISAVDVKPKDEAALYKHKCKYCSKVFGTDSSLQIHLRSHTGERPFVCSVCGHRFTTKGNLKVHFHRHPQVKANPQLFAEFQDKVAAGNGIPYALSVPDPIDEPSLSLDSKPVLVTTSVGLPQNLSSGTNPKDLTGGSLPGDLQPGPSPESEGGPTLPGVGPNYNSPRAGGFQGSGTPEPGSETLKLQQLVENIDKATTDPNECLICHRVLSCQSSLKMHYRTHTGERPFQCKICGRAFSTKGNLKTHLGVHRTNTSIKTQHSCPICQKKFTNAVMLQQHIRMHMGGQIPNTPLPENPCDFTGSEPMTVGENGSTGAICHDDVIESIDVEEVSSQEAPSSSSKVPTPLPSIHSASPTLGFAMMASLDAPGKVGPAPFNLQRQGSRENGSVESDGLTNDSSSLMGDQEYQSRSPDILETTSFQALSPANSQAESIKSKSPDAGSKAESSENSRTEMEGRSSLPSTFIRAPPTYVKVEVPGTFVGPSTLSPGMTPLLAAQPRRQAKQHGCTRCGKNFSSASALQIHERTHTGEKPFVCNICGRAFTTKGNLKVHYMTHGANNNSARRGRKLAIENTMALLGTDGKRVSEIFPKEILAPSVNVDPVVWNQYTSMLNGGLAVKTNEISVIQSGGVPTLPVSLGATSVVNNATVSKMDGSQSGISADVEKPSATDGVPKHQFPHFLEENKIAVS
Method: universal PBM
Form: double-stranded DNA, one strand shown
Sample: in vitro
Concentration: 600 nM
Setting: 8-mer, flanks averaged, mean of replicates
Reading: higher = stronger binding
Measurement: E-score
ACGAAATG: 0.0267
GTAGACGA: 0.0122
CTTCGGTA: -0.0846
CGGGGCAA: -0.228
AGTGCTCG: -0.2
ACACAATG: 0.232
GTTTGTAA: 0.13
CTCGACCA: -0.176
ATCTACCA: 0.151
CACAACTC: 0.142
CAAGACAG: -0.0938
AACACCGA: -0.0691
ACCGAGGC: -0.35
TAAGAGCA: 0.00775
ACGGTCGG: -0.314
ACAGGCGG: -0.244
CGTCGCTA: -0.134
AAGAAGCT: 0.125
AACGTTAG: 0.15
CCATATGA: 0.119
GAGGGGGC: -0.405
GGTATCGA: 0.0678
CAGAGCAG: 0.0944
TCAGACCA: 0.0585
AAAACTAC: 0.182

Sample 2
Partner: PRPF8 (Homo sapiens, UniProt Q6P2Q9)
Method: cross-linking MS
Sample: cell fractions
Together with: DSSO
Measurement: cross-linked residues
USP39 (Homo sapiens, UniProt Q53GS9): K508 to K983
BUD31 (Homo sapiens, UniProt P41223): K125 to K36
TCERG1 (Homo sapiens, UniProt O14776): K1049 to K1222
EFTUD2 (Homo sapiens, UniProt Q15029): K405 to K218
MFAP1 (Homo sapiens, UniProt P55081): K376 to K278

Sample 3
Target: ABI1, truncated, D143A, DHFR fusion (Arabidopsis thaliana)
Method: DHFR PCA, deep sequencing
Sample: yeast
Setting: methotrexate growth selection, single substitutions
Together with: (+)-ABA 710 µM
Relative to: wild-type fitted maximum
Reading: higher = stronger binding
Measurement: relative binding score
Starting sequence: PYL1, truncated, DHFR fusion (Arabidopsis thaliana); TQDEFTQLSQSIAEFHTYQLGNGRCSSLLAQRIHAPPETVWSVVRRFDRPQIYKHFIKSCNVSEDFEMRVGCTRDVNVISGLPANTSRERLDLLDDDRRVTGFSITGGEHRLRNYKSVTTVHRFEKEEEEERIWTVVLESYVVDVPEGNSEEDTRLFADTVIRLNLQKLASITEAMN; partner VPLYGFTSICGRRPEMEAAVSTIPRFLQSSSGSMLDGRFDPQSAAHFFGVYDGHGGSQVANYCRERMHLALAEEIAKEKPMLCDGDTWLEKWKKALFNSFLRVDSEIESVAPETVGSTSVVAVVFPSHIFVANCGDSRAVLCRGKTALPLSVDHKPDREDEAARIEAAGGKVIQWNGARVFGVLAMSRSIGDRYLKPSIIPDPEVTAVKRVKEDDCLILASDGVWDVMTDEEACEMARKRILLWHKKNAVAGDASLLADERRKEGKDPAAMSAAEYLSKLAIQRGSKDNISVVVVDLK
E89S: 9.73%
R69H: 105%
D97F: 106%
V43S: 72.6%
V161I: 101%
T101A: 97.7%
R99I: 40.7%
D159N: 97%
L112Q: 4.34%
V136C: 104%
L28F: 98.6%
R111M: 91.3%
T86W: 106%
S27Y: 68.4%
S26Y: 99%
S59R: 101%
L138H: 72.8%

Sample 4
Target: CCNE1, cyclin fold, Cln2 fusion (human)
Method: yeast growth competition, sequencing
Sample: yeast
Setting: weak parent motif
Relative to: not given
Reading: higher = stronger binding
Measurement: normalised enrichment score
Starting sequence: MASTL docking peptide (human); PMIAKNLMCELDE
L7V: -0.679
E10H: -0.173
I3D: -0.178
K5E: 0.251
M8R: 0.0501
C9Q: 0.0772
C9E: -0.0723
E10D: -0.207
M2R: 0.124
N6S: -0.158
L7E: 0.329
N6L: -0.135
L11V: -0.0415
A4R: 0.237
L11S: -0.027
K5M: 0.0224
C9V: 0.0339
N6G: 0.0137
L7N: 0.141
L11A: 0.0322
I3R: 0.00616
D12K: 0.0612
D12W: -0.00741
D12T: 0.145
L7F: -0.0341

Sample 5
Target: Centromere-binding protein 1, full length, His-tagged (CBF1, Saccharomyces cerevisiae, UniProt P17106, residues 1-351)
Chain of UniProt P17106 (whole entry, looked up): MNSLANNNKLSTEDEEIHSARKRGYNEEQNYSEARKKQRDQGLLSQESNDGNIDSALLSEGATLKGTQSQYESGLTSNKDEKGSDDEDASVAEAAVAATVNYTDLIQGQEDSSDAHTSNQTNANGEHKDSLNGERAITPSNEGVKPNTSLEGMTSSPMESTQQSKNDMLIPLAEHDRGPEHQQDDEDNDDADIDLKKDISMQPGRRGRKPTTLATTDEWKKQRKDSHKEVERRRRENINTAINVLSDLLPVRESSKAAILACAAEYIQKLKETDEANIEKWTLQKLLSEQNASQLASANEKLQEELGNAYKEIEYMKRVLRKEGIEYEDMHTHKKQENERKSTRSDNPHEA
Method: competition protein-binding microarray
Form: double-stranded DNA, one strand shown
Sample: in vitro
Concentration: 2 µM
Setting: whole 60-bp probe, lowest competitor level
Together with: Pho4 competitor, 0.05 µM
Reading: higher = stronger binding
Measurement: fluorescence intensity
AAGACCTATTTCTCAGACGTGCTAATCTCCCGTCAAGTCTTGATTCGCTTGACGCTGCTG: 66.7 a.u.
TAAAATGAAAAATGATCCGTGATGGGAAAAGTTATAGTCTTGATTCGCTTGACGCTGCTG: 110 a.u.
ATTCTATTGCAGAATGTTGTGATATTTCCAAGGTCTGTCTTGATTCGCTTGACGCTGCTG: 94.6 a.u.
TTGCATGTAAGCGTTACTAATATTCCGCTTTATTTTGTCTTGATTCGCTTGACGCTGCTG: 61.4 a.u.
TTTTCTGACCGCCAGTTCGTGCGATTAGTTCTGTGGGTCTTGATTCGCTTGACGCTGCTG: 55.7 a.u.
AAAGCGGTAATTTGAGTGGTGGGTGCAGATATCTATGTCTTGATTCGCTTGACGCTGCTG: 81.1 a.u.
TCACTCCTAGTTTTCCATGTGGCTTCAGCTCGAGGAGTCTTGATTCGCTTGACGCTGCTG: 78.9 a.u.
TTGTTGGAAAGAACCGTCGTGGGTATAACCAGACAAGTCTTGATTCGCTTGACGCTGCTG: 74.1 a.u.
CTTCTGTAAATTTGAATCGTGGGTGGACGCGCCCCGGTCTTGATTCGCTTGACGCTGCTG: 77.3 a.u.
CGGGGTTAAGTTTGTCACACAACTTGCTTGCAGCAGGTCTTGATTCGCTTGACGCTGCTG: 72.2 a.u.
AGGCAAGAAAGAGGATGCGTGCCGAAGCTCGGTTAGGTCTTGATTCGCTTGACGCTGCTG: 70.5 a.u.
CAGGGCACCGGTGCCGTCGTGATGGCCTCGTTGATTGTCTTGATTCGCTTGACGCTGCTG: 60.8 a.u.
TGAAGTGGGAAGGAAGCATTTAGTTCGTGTAGGCTGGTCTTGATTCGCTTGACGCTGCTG: 56 a.u.
TGCGCAACAACTTGTCACTTAACTTTATGTCTAGAAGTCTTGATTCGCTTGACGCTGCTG: 75.5 a.u.
GATATCACCAGCTGGCACGTCAGTGTCTTGACCAATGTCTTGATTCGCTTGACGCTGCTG: 93.6 a.u.
CTTTTTCGCGGGATTGTCGTGCTTTTCAACCATTTTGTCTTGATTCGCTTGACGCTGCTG: 73.9 a.u.
TAGGTGTTAAGAAAGCACGTGCCGATAGGGGTTTAGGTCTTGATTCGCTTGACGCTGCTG: 3250 a.u.
CATACCCAACCTTGCCAGGTGGGTGAAGATATTTGTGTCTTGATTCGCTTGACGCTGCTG: 63.5 a.u.

Sample 6
Target: Prothrombin, mature alpha-thrombin (F2, Homo sapiens, UniProt P00734)
Method: aptamer microarray, sandwich
Form: DNA with 2'F-ANA
Sample: in vitro
Concentration: 200 nM
Setting: whole 15-mer aptamer, many near background
Together with: Cy3 exosite-II aptamer, 400 nM
Reading: higher = stronger binding
Measurement: mean fluorescence intensity
Sequence: GGTTGGTGTGGTTGG
2'F-ANA at 1 2 3 4 7 8 14 15: 81.4 a.u.
2'F-ANA at 1 2 3 4 6 7 10 12 14 15: 57.3 a.u.
2'F-ANA at 2 3 7 8 13 14: 488 a.u.
2'F-ANA at 1 3 4 5 9 10 12 15: 56.6 a.u.
2'F-ANA at 1 3 4 7 8 9 10 12 13: 73.3 a.u.
2'F-ANA at 1 3 4 5 6 7 8 10 11 12 15: 48.3 a.u.
2'F-ANA at 2 5 9 12 15: 140 a.u.
2'F-ANA at 2 3 4 6 8 11 15: 491 a.u.
2'F-ANA at 3 5 7 8 9 10 12 15: 73.1 a.u.
2'F-ANA at 1 4 5 7 8 11 12 13 14: 44.6 a.u.
2'F-ANA at 1 3 4 6 7 10 13 15: 64.1 a.u.
2'F-ANA at 1 2 4 5 6 7 12 15: 103 a.u.
2'F-ANA at 3 8 11 14 15: 668 a.u.
2'F-ANA at 1 3 5 8 13 15: 60.2 a.u.
2'F-ANA at 1 2 3 4 6 8 10 11 15: 58.6 a.u.
2'F-ANA at 3 5 8 10 15: 129 a.u.
2'F-ANA at 1 8 9 13 15: 168 a.u.
2'F-ANA at 1 3 4 6 7 8 10 11 12 14 15: 57.5 a.u.
2'F-ANA at 4 6 9: 263 a.u.
2'F-ANA at 2 3 5 7 8 9 10 11 14 15: 102 a.u.
2'F-ANA at 2 3 4 5 6 8 9 11 12 13 14: 58.6 a.u.
2'F-ANA at 4 5 12 13 14 15: 49.3 a.u.
2'F-ANA at 3 6 7 8 9 10 11 12 13 14 15: 352 a.u.
2'F-ANA at 1 3 4 6 7 8 13 15: 168 a.u.
2'F-ANA at 1 4 6 8 11 15: 105 a.u.

Mixed results
PhoQ, residues 284 288 289 292 302 303 SLKLQV
fold induction (PhoP, residues 12 14 15 18 19 IQFRS (Escherichia coli, UniProt P23836); Sort-seq, measured: YFP reporter; E. coli; PhoQ-PhoP variant library, together with: 10 µM Mg2+; relative to: high Mg2+ state, higher = stronger signaling): 50.4

Some of these lines once more (sample 4):
C9E: -0.0723
E10D: -0.207
M2R: 0.124
N6S: -0.158
L7E: 0.329
N6L: -0.135
L11V: -0.0415
A4R: 0.237
L11S: -0.027
K5M: 0.0224
C9V: 0.0339
N6G: 0.0137
L7N: 0.141
L11A: 0.0322
I3R: 0.00616
D12K: 0.0612
